Assay results gathered from unrelated publications.
Numbered parts are unrelated; each lists some results of a single study.
Sequence of UniProt Q9H4B4 (whole entry, looked up): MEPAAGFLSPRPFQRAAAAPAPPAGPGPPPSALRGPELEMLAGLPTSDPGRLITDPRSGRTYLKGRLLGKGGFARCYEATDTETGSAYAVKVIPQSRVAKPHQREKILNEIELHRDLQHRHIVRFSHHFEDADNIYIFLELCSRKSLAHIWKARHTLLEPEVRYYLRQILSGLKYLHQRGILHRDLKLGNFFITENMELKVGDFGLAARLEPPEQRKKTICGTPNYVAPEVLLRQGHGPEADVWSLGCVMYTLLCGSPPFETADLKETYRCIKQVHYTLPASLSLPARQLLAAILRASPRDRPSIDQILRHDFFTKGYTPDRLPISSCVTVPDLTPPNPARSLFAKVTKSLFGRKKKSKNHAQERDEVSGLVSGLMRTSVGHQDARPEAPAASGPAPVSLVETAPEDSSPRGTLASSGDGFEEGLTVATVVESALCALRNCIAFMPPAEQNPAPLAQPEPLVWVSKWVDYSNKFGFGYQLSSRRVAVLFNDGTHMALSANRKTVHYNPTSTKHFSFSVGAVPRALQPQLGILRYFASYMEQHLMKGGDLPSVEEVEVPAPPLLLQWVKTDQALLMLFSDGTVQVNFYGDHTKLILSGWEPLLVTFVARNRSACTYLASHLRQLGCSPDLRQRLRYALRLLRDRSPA
Sequence of UniProt P42336 (whole entry, unmodified, looked up): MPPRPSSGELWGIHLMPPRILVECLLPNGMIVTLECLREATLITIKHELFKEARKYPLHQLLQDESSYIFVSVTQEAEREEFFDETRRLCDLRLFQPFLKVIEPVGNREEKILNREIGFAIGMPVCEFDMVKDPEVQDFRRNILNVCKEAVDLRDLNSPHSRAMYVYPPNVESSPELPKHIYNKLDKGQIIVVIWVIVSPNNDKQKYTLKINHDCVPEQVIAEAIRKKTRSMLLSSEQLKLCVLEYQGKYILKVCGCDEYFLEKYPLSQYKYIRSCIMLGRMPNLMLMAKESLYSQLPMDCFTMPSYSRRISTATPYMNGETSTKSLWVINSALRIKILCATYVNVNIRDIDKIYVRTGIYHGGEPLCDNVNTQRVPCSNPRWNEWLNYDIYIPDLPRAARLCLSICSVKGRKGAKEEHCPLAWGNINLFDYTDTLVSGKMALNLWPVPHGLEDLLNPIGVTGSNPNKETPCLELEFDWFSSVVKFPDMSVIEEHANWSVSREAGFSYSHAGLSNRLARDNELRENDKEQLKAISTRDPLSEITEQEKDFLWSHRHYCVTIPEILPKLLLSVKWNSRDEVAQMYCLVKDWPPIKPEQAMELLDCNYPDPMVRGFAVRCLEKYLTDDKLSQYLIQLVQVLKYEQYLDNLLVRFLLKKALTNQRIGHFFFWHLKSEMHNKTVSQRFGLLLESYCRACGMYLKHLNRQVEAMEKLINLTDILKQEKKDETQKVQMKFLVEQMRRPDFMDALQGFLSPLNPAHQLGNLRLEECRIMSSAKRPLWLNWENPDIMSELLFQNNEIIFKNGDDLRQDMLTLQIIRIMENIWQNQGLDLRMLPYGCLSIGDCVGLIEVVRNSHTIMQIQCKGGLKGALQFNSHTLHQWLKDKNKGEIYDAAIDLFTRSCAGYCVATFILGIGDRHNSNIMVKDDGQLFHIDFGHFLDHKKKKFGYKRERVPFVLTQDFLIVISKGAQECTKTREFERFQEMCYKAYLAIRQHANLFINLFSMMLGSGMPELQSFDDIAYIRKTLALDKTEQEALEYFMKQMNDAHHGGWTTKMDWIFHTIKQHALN
Sequence of UniProt Q13464 (whole entry, looked up): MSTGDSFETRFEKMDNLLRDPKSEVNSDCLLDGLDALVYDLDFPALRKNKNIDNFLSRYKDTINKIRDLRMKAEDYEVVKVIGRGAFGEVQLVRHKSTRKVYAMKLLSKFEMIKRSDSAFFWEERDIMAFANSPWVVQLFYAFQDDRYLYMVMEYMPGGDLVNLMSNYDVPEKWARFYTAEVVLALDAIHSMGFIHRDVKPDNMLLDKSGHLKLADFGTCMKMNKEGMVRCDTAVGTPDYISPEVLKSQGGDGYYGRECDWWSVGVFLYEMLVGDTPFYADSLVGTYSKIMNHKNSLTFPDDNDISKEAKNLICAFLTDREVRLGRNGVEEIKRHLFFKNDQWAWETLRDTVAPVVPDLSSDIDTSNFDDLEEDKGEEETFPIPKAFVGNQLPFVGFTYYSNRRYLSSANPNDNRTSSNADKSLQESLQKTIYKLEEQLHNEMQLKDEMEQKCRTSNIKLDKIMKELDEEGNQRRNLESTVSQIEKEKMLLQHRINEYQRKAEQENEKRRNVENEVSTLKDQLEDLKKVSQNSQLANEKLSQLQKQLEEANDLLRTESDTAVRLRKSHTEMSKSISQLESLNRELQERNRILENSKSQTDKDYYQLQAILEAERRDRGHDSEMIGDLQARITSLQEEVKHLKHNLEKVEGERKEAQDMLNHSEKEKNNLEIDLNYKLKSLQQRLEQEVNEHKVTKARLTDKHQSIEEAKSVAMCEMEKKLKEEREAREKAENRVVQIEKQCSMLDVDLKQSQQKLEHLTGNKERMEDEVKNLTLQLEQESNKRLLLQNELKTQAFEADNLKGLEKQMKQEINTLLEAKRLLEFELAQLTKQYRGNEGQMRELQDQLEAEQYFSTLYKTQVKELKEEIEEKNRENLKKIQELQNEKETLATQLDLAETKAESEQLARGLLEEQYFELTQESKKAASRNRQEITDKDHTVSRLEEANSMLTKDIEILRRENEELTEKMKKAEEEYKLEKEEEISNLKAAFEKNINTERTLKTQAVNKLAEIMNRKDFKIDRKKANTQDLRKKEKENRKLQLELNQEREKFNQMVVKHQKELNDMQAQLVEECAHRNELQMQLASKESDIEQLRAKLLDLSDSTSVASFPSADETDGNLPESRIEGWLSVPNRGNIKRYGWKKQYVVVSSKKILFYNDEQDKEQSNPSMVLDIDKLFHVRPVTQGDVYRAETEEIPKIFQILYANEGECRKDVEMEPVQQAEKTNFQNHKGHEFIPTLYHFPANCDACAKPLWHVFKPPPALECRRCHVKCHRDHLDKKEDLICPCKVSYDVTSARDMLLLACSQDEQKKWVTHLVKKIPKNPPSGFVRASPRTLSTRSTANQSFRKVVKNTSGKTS
Sequence of UniProt Q13237 (whole entry, looked up): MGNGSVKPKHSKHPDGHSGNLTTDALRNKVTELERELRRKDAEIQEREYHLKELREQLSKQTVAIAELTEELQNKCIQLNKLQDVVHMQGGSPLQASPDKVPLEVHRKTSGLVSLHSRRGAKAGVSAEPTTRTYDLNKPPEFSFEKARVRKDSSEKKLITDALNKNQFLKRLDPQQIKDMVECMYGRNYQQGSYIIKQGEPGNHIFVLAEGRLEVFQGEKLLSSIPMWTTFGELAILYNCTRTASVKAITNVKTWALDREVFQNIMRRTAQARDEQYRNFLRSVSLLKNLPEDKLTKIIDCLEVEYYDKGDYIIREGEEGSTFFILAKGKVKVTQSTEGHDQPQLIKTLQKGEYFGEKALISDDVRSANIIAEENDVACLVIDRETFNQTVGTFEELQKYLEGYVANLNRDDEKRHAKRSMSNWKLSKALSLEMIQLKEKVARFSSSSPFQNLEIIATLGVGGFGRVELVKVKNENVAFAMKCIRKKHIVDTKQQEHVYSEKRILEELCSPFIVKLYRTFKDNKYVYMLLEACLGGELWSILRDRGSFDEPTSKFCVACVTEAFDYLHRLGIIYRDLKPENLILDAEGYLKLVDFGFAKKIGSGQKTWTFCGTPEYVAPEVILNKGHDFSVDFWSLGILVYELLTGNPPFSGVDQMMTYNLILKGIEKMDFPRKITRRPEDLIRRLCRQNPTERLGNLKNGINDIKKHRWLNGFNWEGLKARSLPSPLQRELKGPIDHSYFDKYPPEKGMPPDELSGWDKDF
Sequence of UniProt Q9BQI3 (whole entry, looked up): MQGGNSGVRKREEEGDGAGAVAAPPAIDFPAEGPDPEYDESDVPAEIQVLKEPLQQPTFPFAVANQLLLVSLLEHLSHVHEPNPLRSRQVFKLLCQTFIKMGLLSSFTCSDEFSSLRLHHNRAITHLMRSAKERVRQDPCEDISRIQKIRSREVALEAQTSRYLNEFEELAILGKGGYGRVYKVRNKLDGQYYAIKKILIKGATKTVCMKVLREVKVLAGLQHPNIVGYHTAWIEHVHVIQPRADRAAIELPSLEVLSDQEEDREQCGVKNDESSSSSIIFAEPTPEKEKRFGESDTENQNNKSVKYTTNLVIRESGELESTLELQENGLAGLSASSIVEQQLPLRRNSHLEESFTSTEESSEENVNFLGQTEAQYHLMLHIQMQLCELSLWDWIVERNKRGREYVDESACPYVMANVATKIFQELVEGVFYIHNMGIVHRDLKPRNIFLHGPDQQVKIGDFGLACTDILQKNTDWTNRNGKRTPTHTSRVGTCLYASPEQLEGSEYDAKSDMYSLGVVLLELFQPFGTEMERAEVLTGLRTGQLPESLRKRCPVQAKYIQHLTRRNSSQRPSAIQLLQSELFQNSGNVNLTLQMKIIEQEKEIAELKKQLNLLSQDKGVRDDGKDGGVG
Sequence of UniProt P06493 (whole entry, looked up): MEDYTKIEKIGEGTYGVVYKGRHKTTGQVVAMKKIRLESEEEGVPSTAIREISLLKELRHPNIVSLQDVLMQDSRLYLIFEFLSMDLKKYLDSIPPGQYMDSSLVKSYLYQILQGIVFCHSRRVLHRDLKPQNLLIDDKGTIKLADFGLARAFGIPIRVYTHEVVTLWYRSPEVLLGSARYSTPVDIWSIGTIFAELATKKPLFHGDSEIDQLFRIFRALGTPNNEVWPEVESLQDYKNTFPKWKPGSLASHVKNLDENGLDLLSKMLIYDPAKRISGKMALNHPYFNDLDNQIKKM

Sample 1 — read-out: enzyme activity; mode: inhibitor; concentration: 0.5 µM; reference: control
SMILES: O=c1c(-c2ccc(F)cc2)c(-c2ccncc2)[nH]n1-c1ccc(Cl)cc1
| target | remaining activity |
| --- | --- |
| PNCK (Homo sapiens, UniProt Q6P2M8) | 92% |
| TXK (Homo sapiens, UniProt P42681) | 94.4% |
| DCLK2 (Homo sapiens, UniProt Q8N568) | 99.9% |
| PRKG2 (Homo sapiens, UniProt Q13237) | 110% |
| MINK1 (Homo sapiens, UniProt Q8N4C8) | 97.3% |
| MAPK1 (Homo sapiens, UniProt P28482) | 77.3% |
| CLK4 (Homo sapiens, UniProt Q9HAZ1) | 78.9% |
| MAP2K1 (Homo sapiens, UniProt Q02750) | 70.1% |
| ROCK1 (Homo sapiens, UniProt Q13464) | 109% |
| MARK2 (Homo sapiens, UniProt Q7KZI7) | 88.8% |
| Cyclin-dependent kinase 1, with cyclin A (CDK1, Homo sapiens, UniProt P06493) | 83.1% |
| MET (Homo sapiens, UniProt P08581) | 101% |
| CAMK4 (Homo sapiens, UniProt Q16566) | 104% |
| PLK3 (Homo sapiens, UniProt Q9H4B4) | 96.3% |

Sample 2 — read-out: cell-free assay; technique: competition with immobilised ligand; concentration: 1 µM
Compound: C[C@@H]1CN(c2cc(-c3nn(C)c4ccc(OC5(C)CC5)cc34)ncn2)C[C@H](C)O1
| target | remaining binding |
| --- | --- |
| ULK2 (Homo sapiens, UniProt Q8IYT8) | 59% |
| STK17A (Homo sapiens, UniProt Q9UEE5) | 81% |
| DCLK1 (Homo sapiens, UniProt O15075) | 64% |
| EIF2AK1 (Homo sapiens, UniProt Q9BQI3) | 60% |
| PIK3CA (Homo sapiens, UniProt P42336, I800L) | 66% |
| GRK1 (Homo sapiens, UniProt Q15835) | 100% |
| Tyrosine-protein kinase ABL1, phosphorylated (ABL1, Homo sapiens, UniProt P00519, H396P) | 70% |
| HIPK4 (Homo sapiens, UniProt Q8NE63) | 79% |

Sample 3 — cell line: A-375; concentration: 100 µM; time: 18 h
| Compound | viability [%] |
| --- | --- |
| COC(=O)C1=CO[C@@H](O[C@@H]2O[C@H](CO)[C@@H](O)[C@H](O)[C@H]2O)[C@@H]2[C@@H](C)[C@@H](O)C[C@H]12 | 112 |
| CSc1nc2cc(Cl)c(Oc3cccc(Cl)c3Cl)cc2[nH]1 | 8.84 |
| CC[C@H](C)C(=O)O[C@H]1C[C@H](O)C=C2C=C[C@H](C)[C@H](CC[C@@H](O)C[C@@H](O)CC(=O)O)[C@H]21 | 93.9 |
| CN(C)c1ccc(O)c2c1C[C@H]1C[C@H]3[C@H](N(C)C)C(O)=C(C(N)=O)C(=O)[C@@]3(O)C(O)=C1C2=O | 95.1 |
| CCCCOc1ccc(OCCCN2CCOCC2)cc1 | 48.3 |
| O=C(O)c1cccnc1 | 85.9 |
| Nc1c(CC(=O)O)cccc1C(=O)c1ccc(Br)cc1 | 98 |
| CC(=O)c1ccc2c(c1)N(CCCN1CCC(CCO)CC1)c1ccccc1S2 | 9.04 |

Sample 4
SMILES: COc1cc(C(=O)N2CCC(N3CCN(C)CC3)CC2)ccc1Nc1ncc2c(n1)N(C)c1ccccc1C(=O)N2C
| target | assay | system | conditions | inhibition [%] |
| --- | --- | --- | --- | --- |
| mouse ROCK1 and ROCK2 | probe labelling, KiNativ ADP probe | mouse brain lysate | 1 µM | -7.7 |
| SLK mouse | KiNativ profiling | mouse brain lysate | 1 µM, LYS2 site, with: ATP acyl phosphate probe | 16 |
| PKCa (mouse) | probe labelling, KiNativ, refers to: LYS1 site peptide | brain tissue lysate (mouse) | 0.1 µM, with: ATP acyl-phosphate probe | -0.9 |
| mouse PYK2 | probe labelling, KiNativ ATP probe | mouse brain lysate | 0.1 µM | -0.8 |
| mouse PCTAIRE1/2/3 | probe labelling, KiNativ ADP probe | mouse brain lysate | 0.1 µM, LYS2 site DLkPQNLLINER | -11.1 |
| WNK1, WNK2 and WNK4 (human) | probe labelling, KiNativ, refers to: IGDLGLATLkR peptide, activation loop | PBMC lysate (human) | 1 µM, with: ATP acyl-phosphate probe | 4.6 |
| AMPKa1 and AMPKa2 (mouse) | probe labelling, KiNativ, refers to: VAVkILNR peptide, Lys1 site | brain tissue lysate (mouse) | 0.1 µM, with: ADP acyl-phosphate probe | 3.5 |
| ILK (mouse) | probe labelling, KiNativ ATP probe | mouse brain lysate | 0.1 µM, LYS1 labelled site | 7.1 |
| CaMKK1 (mouse) | probe labelling, KiNativ, refers to: Lys1 site peptide | brain tissue lysate (mouse) | 1 µM, with: ADP acyl-phosphate probe | 11.5 |
| MAP/microtubule affinity-regulating kinase 4 (Mus musculus, UniProt Q8CIP4) | KiNativ profiling | mouse brain lysate | 1 µM, LYS1 site, with: ADP acyl phosphate probe | -4.9 |
| RSK3 domain 1 (mouse) | probe labelling, inhibitor, KiNativ ActivX ADP probe | mouse brain lysate | 1 µM, Lys1 site peptide | 0.6 |

A few entries again (sample 1):
| target | remaining activity |
| --- | --- |
| MAPK1 (Homo sapiens, UniProt P28482) | 77.3% |
| CLK4 (Homo sapiens, UniProt Q9HAZ1) | 78.9% |
| MAP2K1 (Homo sapiens, UniProt Q02750) | 70.1% |
| ROCK1 (Homo sapiens, UniProt Q13464) | 109% |
| MARK2 (Homo sapiens, UniProt Q7KZI7) | 88.8% |
